Measured values collected from several papers.
Each line is one published result; not all experiments were run side by side. Numbers after ± are the reported error. Values after ≈ are worked out from the molar mass of the structure shown.

SMILES | assay | test system | conditions | scale | quantity | value
CC(NC(=O)OC1OC(C(=O)O)C(O)C(O)C1O)c1cc(Cl)ccc1Cn1c(=S)[nH]c(=O)c2[nH]ccc21 (stereo not drawn) | equilibrium dialysis | male Han Wistar rats, plasma | 0.1 µM, 16 h, 37 °C |  | fraction unbound | 19.6 ± 0.67%
CC(C)C[C@@H]1NC(=O)CNC(=O)[C@H](CC(N)=O)NC(=O)[C@H](CCCNC(=N)N)NC(=O)[C@H]([C@@H](C)O)NC(=O)[C@@H]2CSSC[C@@H]3NC(=O)[C@H]([C@@H](C)O)NC(=O)CNC(=O)CNC(=O)[C@H](C(C)C)NC(=O)[C@@H]4CSSC[C@H](NC(=O)[C@H]([C@@H](C)O)NC(=O)[C@H](CSSC[C@H](NC(=O)[C@H](C(C)C)NC(=O)[C@@H]5CCCN5C1=O)C(=O)NCC(=O)N[C@@H](CCC(=O)O)C(=O)N[C@@H]([C@@H](C)O)C(=O)N4)NC(=O)CNC(=O)[C@@H]1CCCN1C(=O)[C@H]([C@@H](C)O)NC(=O)[C@H](CC(N)=O)NC3=O)C(=O)N[C@@H](CO)C(=O)N[C@@H](Cc1c[nH]c3ccccc13)C(=O)N1CCC[C@H]1C(=O)N[C@@H](C(C)C)C(=O)N2 | equilibrium dialysis | rat, plasma | 1 µM, 24 h |  | fraction unbound | 0.25 ± 0.08
CC(C)[C@H](NC(=O)CNC(=O)[C@H](CCC(N)=O)NC(=O)[C@H](C)N)C(=O)O |  | healthy volunteers, LPS endotoxaemia, plasma | intravenous, 45 mg/kg/h, 2 h infusion, geometric mean, together with: LPS 2 ng/kg |  | AUC(0-t) | 7650 ng·h/mL
C=C1C(=O)O[C@@H]2C[C@H](C)[C@@H]3C[C@H](OCc4cn(Cc5ccccc5)nn4)[C@H](OCc4cn(Cc5ccccc5)nn4)[C@@]3(C)C[C@H]12 | propidium iodide flow cytometry | primary splenocytes, BALB/c mouse | 48 h, 10% fetal calf serum |  | CC50 | 229 ± 4 µg/mL (≈ 376 µM)
CCCC[C@H](NC(=O)CNC(=O)CNC(=O)CN1CCN(CC(=O)O)CCN(CC(=O)O)CC1)C(=O)N[C@H]1CC(=O)NCCCC[C@@H](C(N)=O)NC(=O)[C@H](Cc2c[nH]c3ccccc23)NC(=O)[C@H](CCCNC(=N)N)NC(=O)[C@@H](Cc2ccccc2)NC(=O)[C@H](Cc2c[nH]cn2)NC1=O [gallium-67 labelled] |  | C57 mice, B16/F1 melanoma | 0.5 h |  | tumour to skin uptake ratio | 5.15
Cc1ccccc1/N=N/c1ccc(/N=N/c2c(O)ccc3ccccc23)c(C)c1 |  | Sprague-Dawley rats both sexes, whole blood | oral, 50 mg/kg |  | elimination rate constant | 8.14e-05 s⁻¹
Cn1c(=O)oc2ccc(-c3ccc(CC(C#N)NC(=O)C4CNCCCO4)c(F)c3)cc21 (stereo not drawn) |  | human | oral, 20 mg once daily, treatment-related AE, multiple ascending dose |  | acne incidence | 11.1%
O=C(Nc1ccc2c(c1)CN(c1ccc(Br)cc1)C2=O)N1CCN(c2ccc(F)cc2)CC1 |  | mouse C57BL/6, liver microsomes | 90 min |  | remaining parent compound | 88.6 ± 1.05%
CNC(=O)N[C@]1(C)CCC[C@@]2(C)C3CC[C@@]4(C)C[C@]3(CCC21)CC4=O (single isomer, unassigned) |  | male Sprague-Dawley rat, plasma | oral, 2 mg/kg |  | Vd/F | 83.2 L
Oc1ccc(C(F)(F)F)cc1-c1nc2c(Cl)cc(Cl)cc2[nH]1 |  | defibrinated sheep blood | 400 µM | reference: 1% Triton X-100 | hemolysis | < 50%
O=C1CCC(=O)N([O-])CCCCCNC(=O)CCC(=O)N([O-])CCCCCNC(=O)CCC(=O)N([O-])CCCCCN1.[Fe+3] | EDTA competition |  | pH 7.4, together with: EDTA 1.2 equiv |  | apparent log KFe | 32.4 ± 0.1
CN1CCC[C@]1(C)/C=C/S(=O)(=O)NC(=O)Nc1c2c(cc3c1CCC3)CCC2 |  | human, plasma | oral, 12.5 mg twice daily, day 14, multiple ascending dose |  | AUC(0-24) | 23500 ng·h/mL
NC[C@@H](C(=O)Nc1ccc(-c2cn[nH]c2)cc1)c1ccccc1 | OECD 405 eye irritation | New Zealand White rabbit, eye | topical, 0.1%, 56 h (day 3) | direction not given | total eye irritation score | 0
CC(C)(Sc1ccncc1-c1ccc(C#N)c2ccccc12)C(=O)OC1OC(C(=O)O)C(O)C(O)C1O (stereo not drawn) |  | human, urine | oral, 15 mg, 72 h, moderate renal impairment |  | renal clearance | 80.4 mL/min
CCC(=O)N(C)c1ccc(Cl)c(Cl)c1 |  | human liver S9 cofactor-fortified | 10 µM, 1 h, pH 7.4 | reference: boiled S9 | turnover | 24.2%
CC(=O)[CH](C(C)=O)[Pt-2]1([S+](C)C)[O]C(C)=CC(C)=[O+]1 (stereo not drawn) |  | rat, blood | intravenous, 5 mg/kg, single dose |  | creatinine | 0.4 ± 0.02 mg/dL
CC(C)[C@H](NC(=O)CNC(=O)[C@H](CCC(N)=O)NC(=O)[C@H](C)N)C(=O)O | LC-MS/MS | human, male, plasma | intravenous, 10 mg/kg three times daily, day 2, first dose, 10 min infusion, geometric mean |  | clearance | 683 mL/min/kg
CN1CCC=C(C(=O)O)C1 |  | human liver microsomes | 90 min, pH 7.4 | reference: liver microsomes over liver cytosol | metabolite formation ratio | ~12 fold
Cc1ccc(OCC(=O)N(Cc2cccs2)c2ccn[nH]2)cc1 |  | Sprague-Dawley rat, female, plasma | oral gavage, 10 mg/kg |  | dose-normalised AUC(0-last) | 0.786 ng·h/mL/mg/kg
CCN(CC)CCN=S(=O)(c1ccccc1)N1CCCCC1 (stereo not drawn) |  | sodium borate buffer | 24 h, pH 10, hydrolytic stability |  | recovery | 100%
C=C(c1ccc(C(=O)O)c(F)c1)c1cc2c(cc1C)C(C)(C)C=CC2(C)C |  | Sprague-Dawley rat, male | oral, 100 mg/kg, 6 h, sesame oil vehicle |  | blood triglycerides | 268 ± 58 mg/dL

SMILES | assay | test system | conditions | scale | quantity | value
CC12CC(c3ccc(S(C)(=O)=O)cc3)C3=C4CCC(=O)C=C4CCC3C1CCC2(O)C(F)(F)C(F)(F)F (stereo not drawn) | refers to: total radioactivity | human, whole blood and plasma | oral, 5 mg, 48 h, [14C]-labelled, single dose, geometric mean | reference: blood over plasma | blood to plasma ratio | 0.79
Oc1c(Br)cc(Br)c2nc3cc(Br)ccc3nc12 |  | human red blood cells | 200 µM, 1 h, pH 7.2, 37 °C |  | hemolysis | 1.6%
COc1cc(C)c(Cc2ccc(O)cc2)cc1[C@@H]1S[C@H](CO)[C@@H](O)[C@H](O)[C@H]1O |  | Japanese T2DM patients, plasma | 1 mg luseogliflozin, day 7, once daily |  | AUC(0-τ) | 50.4 ± 7.62 ng·h/mL
CC(C)C[C@H](NC(=O)C[C@H](O)[C@H](CC(C)C)NC(=O)[C@H](Cc1c[nH]cn1)NC(=O)CNC(=O)[C@@H](NC(=O)[C@H](C)NC(=O)[C@H](Cc1c[nH]c2ccccc12)NC(=O)[C@H](CCC(N)=O)NC(=O)[C@@H](Cc1ccccc1)NC(=O)CCNC(=O)CCNC(=O)CN1CCN(CC(=O)O)CCN(CC(=O)O)CCN(CC(=O)O)CC1)C(C)C)C(N)=O [lutetium-177 labelled] | radio-HPLC | mouse | intraperitoneal, 25 MBq/200 pmol, 15 min |  | intact fraction in blood | 48%
NCCCC[C@H](NC(=O)[C@@H]1CCCN1C(=O)[C@@H]1CSSC[C@H](N)C(=O)N[C@@H](Cc2ccc(O)cc2)C(=O)N[C@@H](Cc2ccccc2)C(=O)N[C@@H](CCC(N)=O)C(=O)N[C@@H](CC(N)=O)C(=O)N1)C(=O)NCC(N)=O |  | Sprague Dawley rats | sc, 0.2 mg/kg terlipressin, metabolite, normalised to 0.1 mg/kg |  | dose-normalised AUC | 2.5 ng·h/mL
CC(C)(C)c1nc(-c2ccc(NC(=O)c3cccs3)cc2Cl)no1 |  | PBS | 24 h, pH 7.4, room temperature |  | thermodynamic solubility | 67.8 ± 6.4 µg/mL (≈ 187 µM)
O=S(=O)(c1ccccc1)N1CCCCC1 |  | citrate buffer | 24 h, pH 2.0 |  | recovery | 91%
O=C([O-])CN1CCN(CC(=O)[O-])CCN(C(CCC(=O)NCCCCCN(CCCC[C@H](NC(=O)N[C@@H](CCC(=O)O)C(=O)O)C(=O)O)C(=O)c2ccc(I)cc2)C(=O)O)CCN(CC(=O)[O-])CC1.[68Ga+3] (stereo partly drawn) | PET/CT | prostate cancer patients, gluteal muscle | 60 min post-injection |  | SUVmean | 0.58 ± 0.09
Cc1ccc(C(=O)N[C@@H](CO)CC(C)C)cc1C | LC-MS | human liver microsomes | 10 µM of parent drug, 20 min, pH 7.4, together with: NADPH | reference: parent drug at time zero | metabolite peak area | 1%
O=[11C](OC(C(F)(F)F)C(F)(F)F)N1CCC(CNS(=O)(=O)c2ccc(Cl)cc2)CC1 | PET | rhesus monkey, male, striatum | iv, 3.71 mCi |  | uptake | 0.81 SUV
CCc1nc(-c2ccc3c(c2)C(O)C[C@H]3NC(=O)c2cnn(C)c2)no1 (stereo partly drawn) |  | human, pooled urine | oral, 20 mg | reference: dose | radioactive dose excreted in urine | 3.38%
C#CCOc1ccc(/C=C2\SC(=O)N(CC(=O)NCc3ccccc3)C2=O)cc1 | inverse Kirkwood-Buff integrals | binary solvent mixture | 298.15 K, mole fraction x1 0.90 |  | Kirkwood-Buff integral G1,3 | -258 cm³/mol
COC(=O)/C=C/C(=O)c1ccc(OC)cc1 | LC-MS/MS | rat plasma | 400 ng/mL, time not given, 3 freeze-thaw cycles |  | recovery | 93.3 ± 8.9%
CCCC[C@@H]1NC(=O)[C@@H](NC(=O)[C@H](CCC(=O)O)NC(=O)CNC(=O)CN2CCN(CC(=O)O)CCN(CC(=O)O)CCN(CC(=O)O)CC2)CCCCNC(=O)C[C@@H](C(N)=O)NC(=O)[C@H](C(C)C)NC(=O)[C@@H]2CCCN2C(=O)[C@H](CCCNC(=N)N)NC(=O)CNC(=O)[C@H](Cc2c[nH]c3ccccc23)NC(=O)[C@H](CCCNC(=N)N)NC(=O)[C@@H](Cc2ccccc2)NC(=O)[C@H](Cc2c[nH]cn2)NC(=O)[C@H](CCC(=O)O)NC1=O [gallium-67 labelled] |  | B16/F1 melanoma-bearing C57 mice, urine | intravenous, dose not given, 2 h, together with: blocking peptide 10 µg |  | urinary excretion | 92 ± 1.5%
COc1cc(NC(C)=O)c2c(c1O)-c1c(OC)c(OC)cc3c1C(C2)N(C)CC3 (stereo not drawn) |  | rat brain homogenate | 50 µg/mL, 24 h, room temperature, post-preparative storage |  | remaining compound | 96.3 ± 2%
O=C(CCCCC[N+]#[C][99Tc-5]([C]#[N+]CCCCCC(=O)N[C@H]1C(O)O[C@H](CO)[C@@H](O)[C@@H]1O)([C]#[N+]CCCCCC(=O)N[C@H]1C(O)O[C@H](CO)[C@@H](O)[C@@H]1O)([C]#[N+]CCCCCC(=O)N[C@H]1C(O)O[C@H](CO)[C@@H](O)[C@@H]1O)([C]#[N+]CCCCCC(=O)N[C@H]1C(O)O[C@H](CO)[C@@H](O)[C@@H]1O)[C]#[N+]CCCCCC(=O)N[C@H]1C(O)O[C@H](CO)[C@@H](O)[C@@H]1O)N[C@H]1C(O)O[C@H](CO)[C@@H](O)[C@@H]1O (stereo partly drawn) | two-compartment model | CD-1 mouse, blood | dose not given |  | central volume of distribution | 0.007 L/kg
CC(C)c1cnc(-c2cc(Cl)ccc2F)cc1Nc1ccncc1C(=O)NC(CO)CO |  | patients, phase I monotherapy | oral, dose not given, grade 5 |  | patients with decreased appetite | 0%
O=C(O)[C@@H]1C[C@@H](O)CN1C(=O)[C@@H]1CCCN1 | potentiometric titration |  | 25 °C, MA complex, together with: Fe(III) |  | log beta | 14.5
[11CH3]c1ccc2nc(C3CCC3)n(-c3ccc4[nH]ncc4c3)c2n1 |  | standard human adult, liver |  |  | absorbed radiation dose | 12.9 µSv/MBq
O=C([O-])CN1CCN(CC(=O)[O-])CCN(CC(=O)NCCc2ccc3c(c2)C2C=CCC2C(c2cc4c(cc2Br)OCO4)N3)CCN(CC(=O)[O-])CC1.[111In+3] (stereo not drawn) |  | mouse, Hec50 endometrial tumour, brain | 1 h post injection |  | tissue uptake | 0.16 ± 0.08 %ID/g
CCCCC1NC(=O)c2ccccc21 (racemic) |  | Wistar rat, both sexes, plasma | intravenous, 10 mg/kg |  | elimination half-life | 1.04 ± 0.0617 h

A few entries again:
SMILES | assay | test system | conditions | scale | quantity | value
CC(C)c1cnc(-c2cc(Cl)ccc2F)cc1Nc1ccncc1C(=O)NC(CO)CO |  | patients, phase I monotherapy | oral, dose not given, grade 5 |  | patients with decreased appetite | 0%
Cc1ccccc1/N=N/c1ccc(/N=N/c2c(O)ccc3ccccc23)c(C)c1 |  | Sprague-Dawley rats both sexes, whole blood | oral, 50 mg/kg |  | elimination rate constant | 8.14e-05 s⁻¹
CC12CC(c3ccc(S(C)(=O)=O)cc3)C3=C4CCC(=O)C=C4CCC3C1CCC2(O)C(F)(F)C(F)(F)F (stereo not drawn) | refers to: total radioactivity | human, whole blood and plasma | oral, 5 mg, 48 h, [14C]-labelled, single dose, geometric mean | reference: blood over plasma | blood to plasma ratio | 0.79
Oc1c(Br)cc(Br)c2nc3cc(Br)ccc3nc12 |  | human red blood cells | 200 µM, 1 h, pH 7.2, 37 °C |  | hemolysis | 1.6%
O=[11C](OC(C(F)(F)F)C(F)(F)F)N1CCC(CNS(=O)(=O)c2ccc(Cl)cc2)CC1 | PET | rhesus monkey, male, striatum | iv, 3.71 mCi |  | uptake | 0.81 SUV
O=C([O-])CN1CCN(CC(=O)[O-])CCN(C(CCC(=O)NCCCCCN(CCCC[C@H](NC(=O)N[C@@H](CCC(=O)O)C(=O)O)C(=O)O)C(=O)c2ccc(I)cc2)C(=O)O)CCN(CC(=O)[O-])CC1.[68Ga+3] (stereo partly drawn) | PET/CT | prostate cancer patients, gluteal muscle | 60 min post-injection |  | SUVmean | 0.58 ± 0.09
